Published values pooled from the literature.
Protocols differ between the studies behind these lines. Several values in a cell are separate wells, animals, samples, runs or records. ± gives the spread as reported.

For `Cc1ccc(C(=O)N(CCCN)C(c2nc3snc(C)c3c(=O)n2Cc2ccccc2)C(C)C)cc1` (stereo not drawn), “plasma concentration at 24 h” read 2.9 ng/mL (human patients, plasma; intravenous, 2 mg/day, day 3 of induction course, geometric mean).
With `CN1CCN(c2ccc(OC(F)(F)F)c(Nc3ncc4c(n3)-c3c(c(C(N)=O)nn3CCO)CC4)c2)CC1` the plasma concentration was 33.1 ng/mL and 99.9 ng/mL and 86.6 ng/mL (LC-MS/MS; human, plasma; oral, 12 mg/m2, 1 h post-dose).
For `N#Cc1ccc(C(c2ccc(C#N)cc2)n2cncn2)cc1`, the plasma concentration was 67.2 ± 10 ng/mL (human patients, plasma; oral, 5 mg daily, day of surgery).
`O=C(O)CCCCCCCCC(=O)O` has a plasma concentration of 27.3 ± 2.4 nM (healthy human volunteers, plasma; dose not given, 0 h, control phase, probe drugs alone).
Under “plasma exposure increase”, `Cn1cncc1[C@@](N)(c1ccc(Cl)cc1)c1ccc2c(c1)c(-c1cccc(Cl)c1)cc(=O)n2C` is recorded as roughly 30% (human; oral, tablets fed; reference: fasted state).
With `COc1cc2c(cc1OC)CN(CCc1ccc(NC(=O)c3cc(OC)c(OC)cc3NC(=O)c3cnc4ccccc4c3)cc1)CC2` the plasma concentration was 2360 nM (human, plasma; intravenous infusion, 5.9 mg/kg, 60 min).
`O=C(O)CCCCCCCCCCCCCCCCC(=O)O` gave a plasma concentration of 81.6 ± 7.4 nM (healthy human volunteers, plasma; dose not given, 0 h, control phase, probe drugs alone).
`Cn1cc(Nc2nccc(-c3ccc4c(c3)CN(C3COC3)CC[C@H]4NC(=O)c3cn(C(C)(C)C)nn3)n2)cn1` — result for “plasma cell count change”: -79.2% (human, whole blood; 150 mg twice daily, day 14; reference: pre-dose baseline).
`C[C@H](CCC(=O)O[C@@H]1O[C@H](C(=O)O)[C@@H](O)[C@H](O)[C@H]1O)[C@H]1CC[C@H]2[C@@H]3[C@H](O)C[C@@H]4C[C@H](O)CC[C@]4(C)[C@H]3CC[C@]12C` has a plasma concentration of 19.3 ± 1.6 nM (healthy human volunteers, plasma; dose not given, 0 h, control phase, probe drugs alone).
`Cc1cc(-c2nccc3c2ccn3CC(=O)Nc2ccc(-c3cnccn3)cn2)ccn1` has a plasma half-life of roughly 12 h (human, plasma; oral, 7 mg single dose).
For `C/C=C/C[C@H](C)[C@@H](OC)[C@@H](C)[C@H](O)C[C@H]1OC(=O)C=C[C@H]1CC`, “plasma protein binding” read 87% (human).
With `C[C@H](CCC(=O)NCCS(=O)(=O)O)[C@H]1CC[C@H]2[C@@H]3CC[C@@H]4C[C@H](O)CC[C@]4(C)[C@H]3C[C@H](O)[C@]12C` the plasma concentration was 42.8 ± 19.7 nM (healthy human volunteers, plasma; dose not given, 0 h, control phase, probe drugs alone).
`O=C(c1cc(Cc2n[nH]c(=O)c3ccccc23)ccc1F)N1CCN(C(=O)C2CC2)CC1`: “plasma protein binding” “no effect” (human; with: carboplatin).
For `C[C@H](CCC(=O)NCC(=O)O)[C@H]1CC[C@H]2[C@@H]3[C@H](O)C[C@@H]4C[C@H](O)CC[C@]4(C)[C@H]3CC[C@]12C`, the plasma concentration was 404 ± 152 nM (healthy human volunteers, plasma; dose not given, 0 h, baseline phase, no drug).
`C[C@@H](Oc1ccc(S(C)(=O)=O)cc1C(=O)N1C[C@@H]2C[C@]2(c2cc(C(F)(F)F)on2)C1)C(F)(F)F` — result for “plasma radioactivity share”: 48.9% (item: 14C radioactivity; human, plasma; oral, 25 mg; reference: AUC(0-168 h)).

Repeated from above:
With `C[C@H](CCC(=O)NCCS(=O)(=O)O)[C@H]1CC[C@H]2[C@@H]3CC[C@@H]4C[C@H](O)CC[C@]4(C)[C@H]3C[C@H](O)[C@]12C` the plasma concentration was 42.8 ± 19.7 nM (healthy human volunteers, plasma; dose not given, 0 h, control phase, probe drugs alone).
